Assay results of several laboratories.
Compare with care: the assays were run in different laboratories. ± gives the spread as reported.

CC(=O)N[C@@H](CC(N)=O)C(=O)NCC(=O)N[C@@H](C)C(=O)N[C@@H](C)C(N)=O  rate constant k1 (Asn-Gly peptide isomerisation to succinimide; 1H NMR time course; pH 5.1, 55 °C): 0.00341 h⁻¹
COc1ccc(CC2COC(=O)C2Cc2ccc3c(c2)OCO3)cc1OC (mixture of isomers)  protein level (A2780cis; western blot, measured: PUMA; IC50, 48 h; reference: 0 h): increased
COc1ccc(S(=O)(=O)NCc2c[nH]nc2-c2cccs2)cc1  parasitemia (Plasmodium vivax; reinvasion; 1, human, human red blood cells; 3× EC50, 20 h): 0%
CCCCC/C=C/C(=O)CCc1ccc(O)c(OC)c1  IC50 (mAb 6-AT6; antibody binding, indirect competitive ELISA; together with: coating antigen 6-OVA): > 4 µg/mL
Cc1nn(-c2ccc(S(=O)(=O)N[C@H](CO)CC(C)C)cc2)c2nn3nnnc3nc12  necrotic cells (HT-29; AO/EB staining; 1 µM, 24 h): 16.5 ± 2.12%
COc1cc(CNC(=O)C[C@H](C)CCC=C(C)C)ccc1OCc1cn(-c2ccccc2Cl)nn1  growth percent (MOLT-4 leukaemia cells; SRB; 10 µM, 48 h): 16.3%
CC(=O)N[C@@H](CC(N)=O)C(=O)NCC(=O)N[C@@H](CCCNC(=N)N)C(=O)N[C@@H](C)C(N)=O  rate constant k1 (Asn-Gly peptide isomerisation to succinimide; 1H NMR time course; pH 7.4, 28 °C): 0.0079 h⁻¹
COc1cc(CNC(=O)C[C@H](C)CCC=C(C)C)ccc1OCc1cn(-c2ccc(C#N)cc2)nn1  growth (MDA-MB-231/ATCC; SRB; 10 µM, 48 h): 81.4%
Cc1ccc(S(=O)(=O)c2cccc(O)c(=O)c2O)cc1  EC50 (Hepatitis B virus; viral replication, inhibitor; HepDES19): 49 µM
COc1cc(CNC(=O)C[C@H](C)CCC=C(C)C)ccc1OCc1cn(-c2ccccc2F)nn1  growth (MDA-MB-231/ATCC; SRB; 10 µM, 48 h): 66.8%
C=C(CC)C(=O)c1ccc(OCC(=O)NCCCCNC(=O)COc2ccc(C(=O)C(=C)CC)c(Cl)c2Cl)c(Cl)c1Cl  inhibition (glutathione S-transferase, human; enzyme activity; SGC-7901 cell lysate; 0.2 µM): ~80%
O=Cc1c(O)ccc2ccccc12  log2 fold change (HUVEC; RNA sequencing, measured: APLN; 75 µM, 24 h; reference: DMSO): -2.82
COc1cc(CNC(=O)C[C@H](C)CCC=C(C)C)ccc1OCc1cn(-c2ccc([N+](=O)[O-])cc2)nn1  growth (MDA-MB-231/ATCC; SRB; 10 µM, 48 h): 76.8%

For quick reference, copied from above:
Cc1nn(-c2ccc(S(=O)(=O)N[C@H](CO)CC(C)C)cc2)c2nn3nnnc3nc12  necrotic cells (HT-29; AO/EB staining; 1 µM, 24 h): 16.5 ± 2.12%
CCCCC/C=C/C(=O)CCc1ccc(O)c(OC)c1  IC50 (mAb 6-AT6; antibody binding, indirect competitive ELISA; together with: coating antigen 6-OVA): > 4 µg/mL
